Measured values collected from several papers.
Lines come from different studies, so protocols differ.

CO[C@H]1C[C@@H]2CC[C@@H](C)[C@@](O)(O2)C(=O)C(=O)N2CCCC[C@H]2C(=O)O[C@H]([C@H](C)C[C@@H]2CC[C@@H](OC(=O)NCCOCCOCCOCCOCCOCCOCCOCCOCCC(=O)N3CCc4cc(Cn5nc(-c6ccc7oc(N)nc7c6)c6c(N)ncnc65)ccc4C3)[C@H](OC)C2)C[C@@H](O)[C@H](C)/C=C(\C)[C@@H](O)[C@@H](OC)C(=O)[C@H](C)C[C@H](C)/C=C/C=C/C=C/1C — patients with AE (item: grade ≥3 treatment-related AE; patients with advanced solid tumours; intravenous, dose not given, all patients, weekly): 37%
Nc1nc2cc(-c3ccc4ncc(C(=O)N5CCOCC5)n4c3)ccc2o1 — patients with adverse event (item: Vomiting; advanced solid tumour patients; dose not given, all grades, all doses): 51%
N[C@@H]1c2ccccc2OC12CCN(c1cnc3c(N4CCCc5ncccc54)n[nH]c3n1)CC2 — patients with serious AEs (phase Ia; patients advanced metastatic solid tumours; oral, dose not given): 34%
CN1CC[C@@H](c2c(O)cc(O)c3c(=O)cc(-c4ccc(C(F)(F)F)cc4Cl)oc23)[C@@H]1CO — patients with adverse event (item: urinary incontinence; AML; oral, 100 mg, grade 3 to 4, intermittent dosing): 0%
CCN(CCO)CCCC(C)Nc1ccnc2cc(Cl)ccc12 (centres unmarked) — patients with adverse event (item: Hyperglycemia grade 1; newly diagnosed glioblastoma patients; oral, 200 mg/dose, with radiotherapy and temozolomide): 33%
CC(=O)c1c(C)c2cnc(Nc3ccc(C4CCN(CCS(C)(=O)=O)CC4)cn3)nc2n(C2CCCC2)c1=O — patients with TEAE grade ≥3 (HR+/HER2- advanced breast cancer patients; oral, 300 mg): 100%
C=CCNc1c(O)cc2c(O)c1C[C@@H](C)C[C@H](OC)[C@H](O)[C@@H](C)/C=C(\C)[C@H](OC(N)=O)[C@@H](OC)/C=C\C=C(/C)C(=O)N2 — patients with back pain TEAE (unresectable or metastatic STS, GIST, other; intravenous, 90 mg/m^2): 33%
O=C1Nc2cc3[nH]nc(-c4ccncc4)c3cc2CN1Cc1ccccc1 — patients with TEAE (item: dermatitis acneiform; patients with advanced solid tumours; intravenous, dose not given): 22%

Some of these lines once more:
CC(=O)c1c(C)c2cnc(Nc3ccc(C4CCN(CCS(C)(=O)=O)CC4)cn3)nc2n(C2CCCC2)c1=O — patients with TEAE grade ≥3 (HR+/HER2- advanced breast cancer patients; oral, 300 mg): 100%
